Results collected from several papers.
Lines come from different studies, so protocols differ. Several values in a cell are separate wells, animals, samples, runs or records. ± marks the error that the study gave.
GBA2: Beta-glucosidase (GBA2, Homo sapiens, UniProt Q9HCG7)
Sequence of UniProt Q9HCG7 (whole entry, looked up): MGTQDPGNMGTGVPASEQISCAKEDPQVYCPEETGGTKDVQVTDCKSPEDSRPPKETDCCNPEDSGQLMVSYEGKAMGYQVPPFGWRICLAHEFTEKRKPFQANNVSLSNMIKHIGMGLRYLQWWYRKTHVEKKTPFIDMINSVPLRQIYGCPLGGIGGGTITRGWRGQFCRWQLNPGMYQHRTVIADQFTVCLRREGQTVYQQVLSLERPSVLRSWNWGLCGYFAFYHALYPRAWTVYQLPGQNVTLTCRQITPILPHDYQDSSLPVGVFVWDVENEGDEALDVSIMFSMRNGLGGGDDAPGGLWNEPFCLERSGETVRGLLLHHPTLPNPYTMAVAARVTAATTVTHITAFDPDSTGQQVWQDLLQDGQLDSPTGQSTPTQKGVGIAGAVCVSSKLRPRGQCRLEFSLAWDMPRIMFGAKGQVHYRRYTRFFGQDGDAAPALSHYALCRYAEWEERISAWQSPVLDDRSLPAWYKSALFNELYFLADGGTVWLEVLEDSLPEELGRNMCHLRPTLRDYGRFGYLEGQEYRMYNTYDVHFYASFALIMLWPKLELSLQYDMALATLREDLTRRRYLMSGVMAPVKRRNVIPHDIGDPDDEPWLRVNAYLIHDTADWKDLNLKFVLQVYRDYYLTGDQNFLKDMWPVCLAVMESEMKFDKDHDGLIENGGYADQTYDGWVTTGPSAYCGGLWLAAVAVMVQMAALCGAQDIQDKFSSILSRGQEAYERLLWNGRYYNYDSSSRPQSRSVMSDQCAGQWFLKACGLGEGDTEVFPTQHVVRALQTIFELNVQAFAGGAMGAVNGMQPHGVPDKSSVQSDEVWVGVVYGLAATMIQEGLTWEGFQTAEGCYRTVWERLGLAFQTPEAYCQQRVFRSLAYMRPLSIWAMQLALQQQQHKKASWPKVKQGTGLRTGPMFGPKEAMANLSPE

CNS(=O)(=O)Nc1nccc(Cc2c(C)c3ccc(Oc4ncccc4F)cc3oc2=O)c1F  IC50 (HCC1569; cell viability; 7 days): > 1 µM
CCN(CC)CC(=O)Nc1cccc(-n2cc(-c3ccc4ccc(-c5cn(-c6cccc(NC(=O)CN(CC)CC)c6)nn5)cc4c3)nn2)c1  fold regulation (RCC4; PCR array, measured: LEP; 5 x IC50, 2 h, normoxia; baseline: untreated): 1.1
C=C(NC(=O)c1csc(-c2nc3c(cc2O)-c2nc(cs2)C(=O)NC(C(C)O)C(=O)NC(=C(C)OC)c2nc(cs2)C(=O)NC2c4nc(cs4)C(=O)NC(COC(=O)c4c5c6c(cccc6n4O)COC(=O)C(OC4CC(C)(O)C(N(C)C)C(C)O4)C2OC5)c2nc-3cs2)n1)C(N)=O (stereo not shown)  bacterial load (Streptococcus pneumoniae; -4, immunocompromised mice, lung infection, lung; 32 mg/kg/day once daily, 24 h post-dose): 4.78 log CFU/g
CC(C)C[C@H](NC(=O)[C@H](Cc1ccc(O)cc1)NC(=O)[C@@H](CCCNC(=N)N)NC(=O)[C@@H](CO)NC(=O)[C@H](Cc1ccccc1)NC(=O)[C@H](CC1CCCCC1)NC(=O)[C@H](CC(=O)O)NC(=O)CN1CCN(CC(=O)O)CCN(CC(=O)O)CCN(CC(=O)O)CC1)C(=O)N[C@@H](Cc1c[nH]c2ccccc12)C(=O)N[C@@H](CO)C(=O)O [copper-64 labelled]  activity concentration (human, liver; concentration not given, 24 h): 7480 Bq/mL and 6000 Bq/mL and 5590 Bq/mL and 9290 Bq/mL and 9970 Bq/mL and 7720 Bq/mL
O=C(N/N=C/c1cc[n+](CC2CC2)c2ccccc12)c1ccc2ccc3ccc(C(=O)N/N=C/c4cc[n+](CC5CC5)c5ccccc45)nc3c2n1  ΔTm (myc22 MYC G4-DNA parallel; FRET melting; 1 µM, K1 buffer, DNA 0.2 µM): 24.6 ± 0.7 °C
COc1ccc2cc3[n+](cc2c1OCCCOC(=O)c1cscn1)CCc1cc2c(cc1-3)OCO2  plasma total cholesterol reduction (C57BL/6 mice, high-fat diet; oral gavage, 40 mg/kg daily, 14 weeks; baseline: HFD control): 38.7%
O=C1C2CC3CC1CC(C(=O)N1CCN(c4ccc([N+](=O)[O-])c5ncccc45)CC1)(C3)C2  revertant colony count (Escherichia coli; Ames test; WP2 uvrA pKM101; 0.02 µg/well, without S9 activation): 33 colonies/well
C=CC(=O)N1[C@H](c2ccc3c(c2)OCO3)c2[nH]c3ccccc3c2C[C@@H]1C(=O)N1CCN(C)CC1  relative co-enrichment (human cyclin E1 N112C-3xFLAG:CDK2; co-IP with TMT proteomics, measured: HSPA5; concentration not given, P11021; baseline: wild type DMSO): 103%
COc1ccc(C(=O)CCc2cc(C(CCc3ccc(O)cc3OC)c3ccc(O)cc3)c(O)cc2OC)cc1 (racemic)  20-OH-LTB4 level (human blood; 1 µM, added: A23187): 566 ± 227 pg/mL
Cc1ncsc1-c1ccc(C(C)NC(=O)C2CC(O)CN2C(=O)C(NC(=O)CCCCCCCCCCN2CCCC(Nc3ncc(Cl)c(Nc4ccccc4S(=O)(=O)C(C)C)n3)C2)C(C)(C)C)cc1 (stereo not shown)  log2 fold change (22Rv1; RNA-seq, measured: ZFP36L2 mRNA; concentration not given; baseline: DMSO): -1.34
CC[n+]1cccc2cc(/C=N/NC(=O)c3cccc(C(=O)N/N=C/c4ccc5c(ccc[n+]5CC)c4)n3)ccc21  ΔTm (myc22 MYC G4-DNA parallel; FRET melting; 1 µM, K1 buffer, DNA 0.2 µM): 18.9 ± 0.9 °C
COC1CN([C@H]2CC[C@H]([C@@]3(C)Oc4c(Cl)cc(C(=O)NCc5c(SC)cc(C)[nH]c5=O)c(C)c4O3)CC2)C1  log2 fold change (RNA-seq, measured: MMP9; human, whole blood; dose not given, 24 h; baseline: pretreatment baseline): 1.99
C[n+]1ccc(/C=N/NC(=O)N/N=C/c2cc[n+](C)c3ccccc23)c2ccccc21  ΔTm (myc22 MYC G4-DNA parallel; FRET melting; 1 µM, K1 buffer, DNA 0.2 µM, added: ds26 10 µM): 4.3 ± 0.4 °C
CCN(C(=O)c1cc(F)ccc1Oc1nncnc1N1CCC2(C1)CN([C@H](CCCN(C)CCOC)C(C)C)C2)C(C)C  GI50 (NCI-H358M; cell growth or viability; 72 h): > 10 µM
O=C(N/N=C/c1ccc2c(ccc[n+]2Cc2ccccc2)c1)c1cccc(C(=O)N/N=C/c2ccc3c(ccc[n+]3Cc3ccccc3)c2)c1  ΔTm (myc22 MYC G4-DNA parallel; FRET melting; 1 µM, K1 buffer, DNA 0.2 µM, added: ds26 10 µM): 10.6 ± 0.2 °C
C=CC(=O)Nc1cccc(Cn2ncc3cnc(Nc4cnn(CCOC)c4)nc32)c1  percent of control (MST1 human; binding, KINOMEscan; 100 nM; lower = stronger binding): 100%
c1ccc(-c2n[nH]cc2-c2ccnc3ccccc23)nc1  log2 fold change (orf19.4518 Candida albicans; kinase binding, MIB/MS competition; Candida albicans lysate; 1 µM; baseline: DMSO): -0.13
C[n+]1ccc(/C=N/NC(=O)c2cccc(C(=O)N/N=C/c3cc[n+](C)c4ccccc34)n2)c2ccccc21  ΔTm (myc22 MYC G4-DNA parallel; FRET melting; 1 µM, K1 buffer, DNA 0.2 µM, added: ds26 10 µM): 25 ± 0.3 °C
CC(C)(O)c1ccn2c(-c3ccc(F)c(-c4ccc(F)cc4C#N)c3)cnc2c1F  protein interaction (GABAA receptor α1 G251D human; proximity ligation, measured: BiP, calnexin, LMAN1; hiPSC-derived GABAergic neurons α1 G251D; 5 µM, 24 h, added: hispidulin 10 µM): increased
COc1cc(O)ccc1CCC(c1ccc(O)cc1)c1cc2c(c(C)c1O)OC(c1ccc(O)cc1)CC2 (mixture of isomers)  amount (measured: LTB4; human whole blood; 0.3 µM, added: Escherichia coli): 5560 ± 2080 pg/mL blood
CCCC[C@H](NC(=O)COCCOCCNC(=O)CN1CCN(CC(=O)O)CCN(CC(=O)O)CC1)C(=O)N[C@H]1CC(=O)NCCCC[C@@H](C(N)=O)NC(=O)[C@H](Cc2c[nH]c3ccccc23)NC(=O)[C@H](CCCNC(=N)N)NC(=O)[C@@H](Cc2ccccc2)NC(=O)[C@H](Cc2c[nH]cn2)NC1=O [technetium-99m labelled]  tissue uptake (C57 mouse, tumor; intravenous, 0.037 MBq, 2 h): 31.9 ± 2.57 %ID/g
O=C(N/N=C/c1cc[n+](Cc2ccccc2)c2ccccc12)c1ccc2ccc3ccc(C(=O)N/N=C/c4cc[n+](Cc5ccccc5)c5ccccc45)nc3c2n1  ΔTm (myc22 MYC G4-DNA parallel; FRET melting; 1 µM, K1 buffer, DNA 0.2 µM): 21.8 ± 0.9 °C
OC[C@H]1[C@@H](O)[C@H](O)[C@@H](O)CN1CCCCCOCC12CC3CC(C1)CC(COCCCCCN1C[C@H](O)[C@@H](O)[C@H](O)[C@@H]1CO)(C3)C2  selectivity ratio (GBA2; inhibitor, 4MU-β-D-glucopyranoside; HEK293T homogenates overexpressing GBA2; baseline: GBA1 IC50 over GBA2 IC50): 462
CN1CCC[C@]1(C)/C=C/S(=O)(=O)NC(=O)Nc1c2c(cc3c1CCC3)CCC2  IL-1β inhibition (human, whole blood ex vivo; 100 mg twice daily, day 19, 108 h, multiple ascending dose, added: LPS and ATP): 12%
O=C(N/N=C/c1ccc(C[n+]2ccccc2)cc1)c1cccc(C(=O)N/N=C/c2ccc(C[n+]3ccccc3)cc2)c1  ΔTm (myc22 MYC G4-DNA parallel; FRET melting; 1 µM, K1 buffer, DNA 0.2 µM): 2.4 ± 1.2 °C
Nc1ncc(-c2cc(-c3cnn(CC(F)(F)F)c3)ncc2F)nc1C(=O)NC1CNCC(F)C1 (stereo not shown)  remaining binding (LRRK2; KINOMEscan; 1 µM; baseline: DMSO control): 100%
CC(=O)[O-].O.O.O.O.[Co+2].[O-]c1ccc(Br)cc1C=NCCN1CCOCC1  inhibition (superoxide scavenging; 200 µM): 58.3%
CN1CCCNC(=O)c2cccc(c2)C(=O)NCCCN(C)CCCNc2cccc3c2C(=O)c2cccc(c2C3=O)NCCC1  log2 fold change (SAS; RNA-Seq, measured: SRSF11 mRNA; 1 µM, 6 h; baseline: untreated cells): 0.534
C[n+]1cc(/C=N/NC(=O)c2cccc(C(=O)N/N=C/c3cc4ccccc4[n+](C)c3)c2)cc2ccccc21  ΔTm (myc22 MYC G4-DNA parallel; FRET melting; 1 µM, K1 buffer, DNA 0.2 µM): 12.5 ± 0.3 °C
OC[C@@H]1[C@@H](O)[C@H](O)[C@@H](O)CN1CCCCCOCC(COCCCCCN1C[C@H](O)[C@@H](O)[C@H](O)[C@H]1CO)C12CC3CC(CC(C3)C1)C2  selectivity ratio (GBA2; inhibitor, 4MU-β-D-glucopyranoside; HEK293T homogenates overexpressing GBA2; baseline: GBA1 IC50 over GBA2 IC50): 48
CC[C@H](C)[C@H](NC(=O)C[C@H](NC(=O)CN1CCN2CCN(CC1)CC(=O)[O][Al]([18F])[O]C(=O)C2)C(=O)O)C(=O)N[C@H]1CCc2cccc3c2N(C1=O)[C@H](C(=O)NCc1cn[nH]n1)C3  tracer uptake (MC-38 tumour model; host not given, brain; 30 min, tumour-bearing): 0.16 %ID/g

A few entries again:
C[n+]1ccc(/C=N/NC(=O)N/N=C/c2cc[n+](C)c3ccccc23)c2ccccc21  ΔTm (myc22 MYC G4-DNA parallel; FRET melting; 1 µM, K1 buffer, DNA 0.2 µM, added: ds26 10 µM): 4.3 ± 0.4 °C
CCN(C(=O)c1cc(F)ccc1Oc1nncnc1N1CCC2(C1)CN([C@H](CCCN(C)CCOC)C(C)C)C2)C(C)C  GI50 (NCI-H358M; cell growth or viability; 72 h): > 10 µM
